Measurements from different studies.
Every numbered part comes from another study and shows a few of its results, in no order. Several values in a cell are separate wells, animals, samples, runs or records.
Sequence of UniProt Q5XXA6 (whole entry, unmodified, looked up): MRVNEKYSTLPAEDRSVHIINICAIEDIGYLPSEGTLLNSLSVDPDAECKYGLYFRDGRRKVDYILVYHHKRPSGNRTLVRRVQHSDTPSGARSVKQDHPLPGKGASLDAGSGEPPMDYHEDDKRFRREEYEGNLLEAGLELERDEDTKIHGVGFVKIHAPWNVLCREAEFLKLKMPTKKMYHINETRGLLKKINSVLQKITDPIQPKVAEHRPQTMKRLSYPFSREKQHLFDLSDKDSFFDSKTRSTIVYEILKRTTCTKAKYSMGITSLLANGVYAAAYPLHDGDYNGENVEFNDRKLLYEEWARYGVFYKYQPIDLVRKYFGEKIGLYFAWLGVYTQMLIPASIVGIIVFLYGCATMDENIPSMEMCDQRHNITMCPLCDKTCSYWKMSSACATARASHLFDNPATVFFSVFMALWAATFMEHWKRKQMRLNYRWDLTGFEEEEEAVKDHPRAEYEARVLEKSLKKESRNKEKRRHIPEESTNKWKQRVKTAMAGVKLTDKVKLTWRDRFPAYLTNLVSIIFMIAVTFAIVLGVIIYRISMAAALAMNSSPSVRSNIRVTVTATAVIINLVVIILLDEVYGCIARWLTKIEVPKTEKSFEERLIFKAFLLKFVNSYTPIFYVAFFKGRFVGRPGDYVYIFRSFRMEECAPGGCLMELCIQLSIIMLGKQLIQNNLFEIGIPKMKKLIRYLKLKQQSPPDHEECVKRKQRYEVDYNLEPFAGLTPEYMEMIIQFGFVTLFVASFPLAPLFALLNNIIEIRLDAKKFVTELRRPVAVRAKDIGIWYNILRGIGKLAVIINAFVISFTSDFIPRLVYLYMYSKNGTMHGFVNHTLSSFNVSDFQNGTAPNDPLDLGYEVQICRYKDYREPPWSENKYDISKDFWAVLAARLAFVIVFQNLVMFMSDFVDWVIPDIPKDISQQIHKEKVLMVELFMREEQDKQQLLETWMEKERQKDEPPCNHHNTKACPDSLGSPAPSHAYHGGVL
Sequence of UniProt P49840 (whole entry, looked up): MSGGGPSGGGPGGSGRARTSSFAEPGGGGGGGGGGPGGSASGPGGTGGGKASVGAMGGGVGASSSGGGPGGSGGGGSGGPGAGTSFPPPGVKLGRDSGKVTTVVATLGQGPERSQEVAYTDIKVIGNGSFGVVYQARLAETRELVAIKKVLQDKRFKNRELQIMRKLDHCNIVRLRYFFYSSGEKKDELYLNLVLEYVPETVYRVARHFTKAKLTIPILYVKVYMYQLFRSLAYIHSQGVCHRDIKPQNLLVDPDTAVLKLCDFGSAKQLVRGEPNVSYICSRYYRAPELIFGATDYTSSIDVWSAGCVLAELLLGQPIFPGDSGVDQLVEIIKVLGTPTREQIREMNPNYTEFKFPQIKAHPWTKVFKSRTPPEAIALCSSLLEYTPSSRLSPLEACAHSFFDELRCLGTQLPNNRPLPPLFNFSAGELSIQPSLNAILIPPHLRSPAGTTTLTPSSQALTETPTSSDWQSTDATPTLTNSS

Set 1
Target: G protein-coupled receptor kinase 6 (GRK6, Homo sapiens, UniProt P43250)
Sequence of UniProt P43250 (whole entry, looked up): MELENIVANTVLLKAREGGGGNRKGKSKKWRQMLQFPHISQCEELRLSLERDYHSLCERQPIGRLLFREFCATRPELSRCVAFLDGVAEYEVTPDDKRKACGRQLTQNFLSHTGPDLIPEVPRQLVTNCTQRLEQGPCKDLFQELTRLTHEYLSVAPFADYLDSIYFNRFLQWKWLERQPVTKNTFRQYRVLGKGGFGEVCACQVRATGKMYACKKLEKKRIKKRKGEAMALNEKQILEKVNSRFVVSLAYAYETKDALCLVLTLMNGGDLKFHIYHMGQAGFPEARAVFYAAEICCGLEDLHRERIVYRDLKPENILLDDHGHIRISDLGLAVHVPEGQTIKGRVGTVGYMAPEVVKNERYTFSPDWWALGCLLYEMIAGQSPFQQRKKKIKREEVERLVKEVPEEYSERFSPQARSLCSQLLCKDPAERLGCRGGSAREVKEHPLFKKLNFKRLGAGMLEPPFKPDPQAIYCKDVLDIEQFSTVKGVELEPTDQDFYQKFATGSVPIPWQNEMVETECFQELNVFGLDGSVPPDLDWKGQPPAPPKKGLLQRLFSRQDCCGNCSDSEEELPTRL
Read-out: enzyme activity
Action: inhibitor
Concentration: 0.5 µM
Reference: control
Measurement: remaining activity
O=C1NC(=O)C(c2c[nH]c3ccccc23)=C1c1c[nH]c2ccccc12: 101%
CC#CC(=O)Nc1cc2c(Nc3ccc(F)c(Cl)c3)ncnc2cn1: 104%
Cc1cncc2cccc(S(=O)(=O)N3CCCN(C(=O)CN)C[C@@H]3C)c12: 85.5%
Nc1ncnc2c1cnn2-c1ccccc1: 92.3%
Nc1nc(Nc2ccc(S(N)(=O)=O)cc2)nn1C(=O)c1c(F)cccc1F: 77.2%

Set 2
Structure (SMILES): C=CCc1ccc(O)c(-c2cc(CC=C)ccc2O)c1
Read-out: chloride current
Method: whole-cell voltage clamp
Measurement: IC50
Anoctamin-1 (ANO1, Homo sapiens, UniProt Q5XXA6, del476-501/R541I); inhibitor; R515I mutant at -80 mV: 45 µM
Anoctamin-1 (ANO1, Homo sapiens, UniProt Q5XXA6, del476-501/F807A); membrane voltage -100 mV: 30.5 µM
Anoctamin-1 (ANO1, Homo sapiens, UniProt Q5XXA6, del476-501/E649K); inhibitor; E623K mutant at -40 mV: 140 µM
Anoctamin-1 (ANO1, Homo sapiens, UniProt Q5XXA6, del476-501/F646A); inhibitor; pore pocket mutant F620A at 100 mV, with: 300 nM Ca2+: 29.2 µM
Anoctamin-1 (ANO1, Homo sapiens, UniProt Q5XXA6, del476-501/F803A); membrane voltage 80 mV: 19.4 µM
Anoctamin-1 (ANO1, Homo sapiens, UniProt Q5XXA6, del476-501); membrane voltage -100 mV, with: 300 nM Ca2+: 31.4 µM
Anoctamin-1 (ANO1, Homo sapiens, UniProt Q5XXA6, del476-501/R541K); inhibitor; R515K mutant at 20 mV: 17 µM
Anoctamin-1 (ANO1, Homo sapiens, UniProt Q5XXA6, del476-501/K629R); inhibitor; 100 mV holding voltage: 251 µM
Anoctamin-1 (ANO1, Homo sapiens, UniProt Q5XXA6, del476-501/E649D); inhibitor; E623D mutant at 40 mV: 33.5 µM

Other studies, line by line
O=C(O)[C@H]1[C@H](Cn2nnc3ccccc3c2=O)CC[C@@H]1C(=O)c1ccc(OCCC2CCOCC2)cc1
remaining binding (GSK3A (Homo sapiens, UniProt P49840); cell-free assay, competition with immobilised ligand; 1 µM): 74%

CC(=O)N[C@@H](Cc1c[nH]c2ccccc12)C(=O)N[C@@H](CCC(=O)C=[N+]=[N-])C(=O)OC(C)C
GI inflammation score (histopathology; mouse C57BL/6 CES1-/-, GI tissue; subcutaneous, 0.8 mg/kg; direction not given): 0

CC(C)(C)c1cnc(CSc2cnc(NC(=O)C3CCN(CCCCCCCCSc4cccc5c4CN(C4CCC(=O)NC4=O)C5=O)CC3)s2)o1 (stereo not drawn)
viability (HH; CCK-8; 1 nM): 100% and 102%

CC(C)n1cnc(-c2ccc(F)cc2)c1-c1ncc(C(=O)Nc2ccc(N3CCN(C)CC3)cc2)[nH]1
patients with Hypothyroidism (human, idiopathic pulmonary fibrosis; 30 mg once daily, trial, treatment-emergent): 0%

For quick reference, copied from above (set 1):
Nc1nc(Nc2ccc(S(N)(=O)=O)cc2)nn1C(=O)c1c(F)cccc1F: 77.2%
Cc1cncc2cccc(S(=O)(=O)N3CCCN(C(=O)CN)C[C@@H]3C)c12: 85.5%
